Experimental data collected from several papers.
Compare with care: the assays were run in different laboratories. ± gives the spread as reported.
Chain of UniProt O88693 (whole entry, looked up): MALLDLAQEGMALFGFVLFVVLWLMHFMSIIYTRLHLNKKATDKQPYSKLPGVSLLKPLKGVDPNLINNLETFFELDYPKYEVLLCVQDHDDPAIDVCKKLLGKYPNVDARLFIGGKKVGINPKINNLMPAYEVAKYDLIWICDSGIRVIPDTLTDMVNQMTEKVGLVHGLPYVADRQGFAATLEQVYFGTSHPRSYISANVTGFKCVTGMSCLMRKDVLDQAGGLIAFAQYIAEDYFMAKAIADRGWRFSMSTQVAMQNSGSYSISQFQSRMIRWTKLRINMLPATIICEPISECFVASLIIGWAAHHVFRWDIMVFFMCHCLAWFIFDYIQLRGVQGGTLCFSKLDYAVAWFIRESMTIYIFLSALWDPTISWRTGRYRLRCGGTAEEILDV
Chain of UniProt P49760 (whole entry, looked up): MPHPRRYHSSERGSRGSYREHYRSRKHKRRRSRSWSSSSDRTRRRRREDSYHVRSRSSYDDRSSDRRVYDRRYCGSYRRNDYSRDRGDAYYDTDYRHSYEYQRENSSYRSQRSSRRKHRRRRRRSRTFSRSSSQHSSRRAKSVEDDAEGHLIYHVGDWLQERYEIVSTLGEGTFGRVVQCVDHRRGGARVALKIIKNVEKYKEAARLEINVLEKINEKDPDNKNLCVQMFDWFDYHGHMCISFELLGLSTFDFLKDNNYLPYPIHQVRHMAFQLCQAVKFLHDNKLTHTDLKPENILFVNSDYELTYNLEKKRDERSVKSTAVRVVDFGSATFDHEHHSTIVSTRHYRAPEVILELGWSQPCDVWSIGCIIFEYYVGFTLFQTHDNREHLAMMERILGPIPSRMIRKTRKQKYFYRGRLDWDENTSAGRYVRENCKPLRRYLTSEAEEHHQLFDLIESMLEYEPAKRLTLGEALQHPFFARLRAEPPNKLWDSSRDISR

Compound | target or system | test | system | setting | how to read | measurement | value
F[C@@H]1[C@H](c2ccc(-c3cnc(N4CCOCC4)nc3)cc2)[C@H](F)[C@H](F)C[C@@H]1F |  | liver microsome stability | dog liver microsomes | 1 µM |  | hepatic clearance | 18 mL/min/kg
COC1CN([C@H]2CC[C@H]([C@@]3(C)Oc4c(Cl)cc(C(=O)NCc5c(SC)cc(C)[nH]c5=O)c(C)c4O3)CC2)C1 |  | RNA-seq, refers to: MTSS2 mouse homolog | mouse, HT-1376 xenograft, whole blood | dose not given | reference: vehicle | log2 fold change | 1.47
CCCNC(=O)[C@H]1O[C@@H]1C(=O)N[C@H](C(=O)N1CCC[C@H]1C(=O)OCC1=C2C(C)=CC(C)=[N+]2[B-](CC)(CC)n2c(C)cc(C)c21)[C@@H](C)CC |  | Nd:YAG laser irradiation | methanol | irradiation at 532 nm |  | photodecomposition quantum yield | 0.56 ± 0.02%
O=C(Nc1cnccc1-c1ccc([18F])cc1)c1ccnc(NC(=O)C2CC2)c1 |  |  | FVB/NJ mice, both sexes, brain | intravenous, 30 min, median, P-gp inhibitor pretreatment, together with: tariquidar 15 mg/kg iv |  | SUV | 0.4
O=C(CC(F)(F)F)Nc1ccc(C2CCCCC2)cc1 |  | hepatocyte stability | cryopreserved mouse hepatocytes | 1 µM |  | hepatic clearance | 80 mL/min/kg
CCCC[C@H](NC(=O)COCCOCCNC(=O)CN1CCN(CC(=O)O)CCN(CC(=O)O)CC1)C(=O)N[C@H]1CC(=O)NCCCC[C@@H](C(N)=O)NC(=O)[C@H](Cc2c[nH]c3ccccc23)NC(=O)[C@H](CCCNC(=N)N)NC(=O)[C@@H](Cc2ccccc2)NC(=O)[C@H](Cc2c[nH]cn2)NC1=O [technetium-99m labelled] |  |  | C57 mouse, skin | intravenous, 0.037 MBq, 2 h |  | tissue uptake | 0.47 ± 0.17 %ID/g
CC[C@H](C)[C@H](NC(=O)[C@H](CCC(N)=O)NC(=O)[C@@H](NC(=O)[C@@H]1CCCN1[C@@H]1CN(C(=O)[C@H](CCCCN)NC(=O)[C@H](CC(N)=O)NC(=O)[C@@H](NC(=O)[C@@H](NC(=O)[C@H](CCC(N)=O)NC(=O)[C@@H](N)C(C)C)[C@@H](C)CC)[C@@H](C)CC)CC[C@H]1NS(=O)(=O)c1ccc(C)cc1)C(C)C)C(=O)N[C@H](C(=O)N[C@@H](Cc1ccc(O)cc1)C(=O)N[C@@H](CCCCN)C(N)=O)C(C)C |  | CD spectroscopy | 20 mM phosphate buffer | 125 µM, 20 °C |  | helix content | 7.2%
CCCC[C@H](NC(=O)CNC(=O)CNC(=O)[C@H](CCCCNC(=O)[C@H](CC(=O)O)NC(=O)C(C)c1ccc(CC(C)C)cc1)NC(=O)CN1CCN(CC(=O)O)CCN(CC(=O)O)CCN(CC(=O)O)CC1)C(=O)N[C@H]1CC(=O)NCCCC[C@@H](C(N)=O)NC(=O)[C@H](Cc2c[nH]c3ccccc23)NC(=O)[C@H](CCCNC(=N)N)NC(=O)[C@@H](Cc2ccccc2)NC(=O)[C@H](Cc2c[nH]cn2)NC1=O (stereo partly drawn) [lutetium-177 labelled] |  |  | C57 mouse, urine | intravenous, dose not given, 2 h, 177Lu-labelled, receptor blockade, together with: unlabelled NDP-MSH 10 µg co-injected |  | urinary excretion | 80 ± 2.02%
C=Cc1cccc([B-]23OC(=O)C(c4ccccc4)=N[N+]2=Cc2ccc(N(CC)CC)cc2O3)c1 (stereo not drawn) |  |  | toluene |  |  | fluorescence lifetime | 2.54 ns
C=CC(=O)Nc1cccc(Cn2ncc3cnc(Nc4cnn(CCOC)c4)nc32)c1 | DYRK1B human | binding, KINOMEscan |  | 100 nM | lower = stronger binding | percent of control | 85%
CC(C)C[C@H](NC(=O)[C@@H](CCCCNC(=O)[C@@H](Cc1ccccc1)NC(=O)CCCCCNC(=O)CN1CCN(CC(=O)O)CCN(CC(=O)O)CCN(CC(=O)O)CC1)NC(=O)[C@H](Cc1ccc(O)cc1)NC(=O)[C@H](CO)NC(=O)[C@H](Cc1c[nH]c2ccccc12)NC(=O)[C@H](Cc1c[nH]cn1)NC(=O)[C@@H]1CCC(=O)N1)C(=O)N[C@@H](CCCNC(=N)N)C(=O)N1CCC[C@H]1C(=O)NCC(N)=O [indium-111 labelled] |  |  | female athymic nude mice, kidneys | intravenous, 0.037 MBq, 4 h |  | tissue uptake | 5.33 ± 0.71 %ID/g
F[C@@H]1[C@H](c2ccc(-c3cncnc3)cc2)[C@H](F)[C@H](F)C[C@@H]1F |  | liver microsome stability | cynomolgus liver microsomes | 1 µM |  | hepatic clearance | 6.8 mL/min/kg
C=C[C@]1(C)C[C@@H](OC(=O)CSc2ccc(NC(=O)c3ccco3)cc2)[C@]2(C)[C@H](C)CC[C@]3(CCC(=O)[C@H]32)[C@@H](C)[C@@H]1O |  |  | chicken, Mycoplasmoides gallisepticum infected, plasma | intramuscular, 80 mg/kg |  | elimination half-life | 4.23 h
O=C(CN1CCCCC1)Nc1ccc([C@H]2[C@@H](F)[C@@H](F)C[C@@H](F)[C@H]2F)cc1 |  |  | cryopreserved mouse hepatocytes | 1 µM |  | hepatic clearance | 49 mL/min/kg
O=C(CN1CN(c2ccc(Cl)c(Cl)c2)C2(CCN(C(=O)c3ccc4[nH]ncc4c3)CC2)C1=O)NCC(F)(F)F |  |  | mouse liver microsomes |  |  | CLint | 430 µL/min/mg protein
Nc1ncc(-c2cc(-c3cnn(CC(F)(F)F)c3)ncc2F)nc1C(=O)NC1CNCC(F)C1 (stereo not drawn) | PDPK1 | KINOMEscan |  | 1 µM | reference: DMSO control | remaining binding | 99%
COc1cccc(OC)c1-c1cc(C(=O)NC2(C(=O)O)C3CC4CC(C3)CC2C4)nn1-c1ccc(C(=O)NCCNC(=O)[C@H](CCCCNC(=O)[C@H](CC(C)C)NC(=O)C2OC2C(=O)O)NC(=O)CN2CCN(CC(=O)[O-])CCN(CC(=O)[O-])CCN(CC(=O)[O-])CC2)cc1C(C)C.[177Lu+3] (mixture of isomers) |  |  | mouse, HT-29 xenograft, spleen | 168 h post injection |  | tissue uptake | 0.9 %ID/g
COC(=O)[C@@]1(C)C=C(C(=O)Nc2cccc(C(=O)Nc3ccc(Nc4nccc(-c5cccnc5)n4)c(C)c3)c2)C(=O)CC1 |  |  | Wistar rat, male, plasma | 1 µM, 10 min |  | compound remaining | 55.3%
Cc1nn(-c2cccc(N)c2)c(=O)c2cnc(Nc3ccc(N4CCNCC4)cc3)nc12 | CLK2 (Homo sapiens, UniProt P49760) | kinase activity, inhibitor, SelectScreen kinase profiling |  |  |  | IC50 | > 10 µM
COc1cccc(OC)c1-c1cc(C(=O)NC2(C(=O)O)C3CC4CC(C3)CC2C4)nn1-c1ccc(C(=O)N(C)CCCN(C)C(=O)[C@H](CCCCNC(=O)[C@H](CC(C)C)NC(=O)C2OC2C(=O)O)NC(=O)CN2CCN(CC(=O)[O-])CCN(CC(=O)[O-])CCN(CC(=O)[O-])CC2)cc1C(C)C.[177Lu+3] (mixture of isomers) |  |  | mouse, HT-29 xenograft, lung | 4 h post injection |  | tissue uptake | 1.19 %ID/g
C=C(NC(=O)c1csc(-c2nc3c(cc2O)-c2nc(cs2)C(=O)NC(C(C)O)C(=O)NC(=C(C)OC)c2nc(cs2)C(=O)NC2c4nc(cs4)C(=O)NC(COC(=O)c4c5c6c(cccc6n4O)COC(=O)C(OC4CC(C)(O)C(N(C)C)C(C)O4)C2OC5)c2nc-3cs2)n1)C(N)=O (stereo not drawn) |  |  | ICR mice, Streptococcus pneumoniae ATCC 49169 infected, immunocompromised, blood | intravenous, 32 mg/kg/day three times daily |  | Cmax | 1300 ng/mL
C=C1CC[C@H](OCCCNC(=O)CCOCCOCCOCCOCCOCCOCCOCCOCCOCCOCCOCCOCCOCCOCCOCCOCCOCCOCCOCCOCCOCCOCCOCCOCCOCCOCCOCCOCCOCCOCCOCCOCCOCCOCCOCCOCCNC(=O)CCN2C(=O)CC(SC[C@H](NC(=O)[C@H](Cc3ccccc3)NC(=O)[C@H](CC(N)=O)NC(=O)[C@H](Cc3c[nH]cn3)NC(=O)[C@@H](NC(=O)[C@H](CC(=O)O)NC(=O)[C@H](CCC(N)=O)NC(=O)[C@H](CC(C)C)NC(=O)[C@H](CCCCN)NC(=O)[C@H](CCCCN)NC(=O)[C@H](CCCNC(=N)N)NC(=O)[C@H](CC(C)C)NC(=O)[C@H](Cc3c[nH]c4ccccc34)NC(=O)[C@H](CCC(=O)O)NC(=O)[C@@H](NC(=O)[C@H](CCCNC(=N)N)NC(=O)[C@H](CCC(=O)O)NC(=O)[C@H](CCSC)NC(=O)[C@H](CO)NC(=O)[C@H](CC(N)=O)NC(=O)[C@H](CC(C)C)NC(=O)[C@H](Cc3c[nH]cn3)NC(=O)[C@H](CCCCN)NC(=O)CNC(=O)[C@H](CC(C)C)NC(=O)[C@H](CC(N)=O)NC(=O)[C@H](Cc3c[nH]cn3)NC(=O)[C@H](CCSC)NC(=O)[C@H](CC(C)C)NC(=O)[C@H](CCC(N)=O)NC(=O)[C@@H](NC(=O)[C@H](CCC(=O)O)NC(=O)[C@H](CO)NC(=O)[C@@H](NC(=O)[C@@H](N)CO)C(C)C)[C@@H](C)CC)C(C)C)C(C)C)C(=O)O)C2=O)C/C1=C/C=C1\CCC[C@]2(C)[C@@H]([C@H](C)CCCC(C)(C)O)CC[C@@H]12 (stereo partly drawn) |  |  | rat, plasma | subcutaneous, 100 µg/kg, single dose |  | MRT | 13.7 h
O=C(c1ccc([C@H]2[C@@H](F)[C@@H](F)C[C@@H](F)[C@H]2F)cc1)N1CCCC1 |  | liver microsome stability | cynomolgus liver microsomes | 1 µM |  | hepatic clearance | 33 mL/min/kg
C=CC(=O)Nc1cc(Nc2nccc(-c3cn(C)c4ccccc34)n2)c(OC)cc1N(C)CCNC |  | storage stability | human plasma | 5 h, -80 °C, LLOQ level |  | recovery | 97.8%
CNC(=O)C1CCCN(C(=O)C2CC3CCC2N3C(=O)[C@@H]2C[C@@H](O)CN2C(=O)NCc2cccc(Cl)c2F)C1 (mixture of isomers) | CYP3A4 (human) | inhibitor, time-dependent inhibition |  | 0.0686 µM, preincubated without NADPH, together with: testosterone substrate |  | 6β-hydroxytestosterone formation | 170 ng/mL
O=C(CN1CCOCC1)Nc1ccc(C2CCCCC2)cc1 |  | liver microsome stability | cynomolgus liver microsomes | 1 µM |  | hepatic clearance | 35 mL/min/kg
OC[C@H]1[C@@H](O)[C@H](O)[C@@H](O)CN1CCCCCOCc1ccccc1 | Ugcg (Mus musculus, UniProt O88693) | enzyme activity, inhibitor, fluorescence |  |  |  | IC50 | 0.2 µM

A few entries again:
Compound | target or system | test | system | setting | how to read | measurement | value
C=C1CC[C@H](OCCCNC(=O)CCOCCOCCOCCOCCOCCOCCOCCOCCOCCOCCOCCOCCOCCOCCOCCOCCOCCOCCOCCOCCOCCOCCOCCOCCOCCOCCOCCOCCOCCOCCOCCOCCOCCOCCOCCOCCNC(=O)CCN2C(=O)CC(SC[C@H](NC(=O)[C@H](Cc3ccccc3)NC(=O)[C@H](CC(N)=O)NC(=O)[C@H](Cc3c[nH]cn3)NC(=O)[C@@H](NC(=O)[C@H](CC(=O)O)NC(=O)[C@H](CCC(N)=O)NC(=O)[C@H](CC(C)C)NC(=O)[C@H](CCCCN)NC(=O)[C@H](CCCCN)NC(=O)[C@H](CCCNC(=N)N)NC(=O)[C@H](CC(C)C)NC(=O)[C@H](Cc3c[nH]c4ccccc34)NC(=O)[C@H](CCC(=O)O)NC(=O)[C@@H](NC(=O)[C@H](CCCNC(=N)N)NC(=O)[C@H](CCC(=O)O)NC(=O)[C@H](CCSC)NC(=O)[C@H](CO)NC(=O)[C@H](CC(N)=O)NC(=O)[C@H](CC(C)C)NC(=O)[C@H](Cc3c[nH]cn3)NC(=O)[C@H](CCCCN)NC(=O)CNC(=O)[C@H](CC(C)C)NC(=O)[C@H](CC(N)=O)NC(=O)[C@H](Cc3c[nH]cn3)NC(=O)[C@H](CCSC)NC(=O)[C@H](CC(C)C)NC(=O)[C@H](CCC(N)=O)NC(=O)[C@@H](NC(=O)[C@H](CCC(=O)O)NC(=O)[C@H](CO)NC(=O)[C@@H](NC(=O)[C@@H](N)CO)C(C)C)[C@@H](C)CC)C(C)C)C(C)C)C(=O)O)C2=O)C/C1=C/C=C1\CCC[C@]2(C)[C@@H]([C@H](C)CCCC(C)(C)O)CC[C@@H]12 (stereo partly drawn) |  |  | rat, plasma | subcutaneous, 100 µg/kg, single dose |  | MRT | 13.7 h
CNC(=O)C1CCCN(C(=O)C2CC3CCC2N3C(=O)[C@@H]2C[C@@H](O)CN2C(=O)NCc2cccc(Cl)c2F)C1 (mixture of isomers) | CYP3A4 (human) | inhibitor, time-dependent inhibition |  | 0.0686 µM, preincubated without NADPH, together with: testosterone substrate |  | 6β-hydroxytestosterone formation | 170 ng/mL
